Assay results pooled from the literature.
Target: MAP/microtubule affinity-regulating kinase 4 (MARK4, Homo sapiens, UniProt Q96L34)
Sequence (Q96L34 1-752, as in one of the studies): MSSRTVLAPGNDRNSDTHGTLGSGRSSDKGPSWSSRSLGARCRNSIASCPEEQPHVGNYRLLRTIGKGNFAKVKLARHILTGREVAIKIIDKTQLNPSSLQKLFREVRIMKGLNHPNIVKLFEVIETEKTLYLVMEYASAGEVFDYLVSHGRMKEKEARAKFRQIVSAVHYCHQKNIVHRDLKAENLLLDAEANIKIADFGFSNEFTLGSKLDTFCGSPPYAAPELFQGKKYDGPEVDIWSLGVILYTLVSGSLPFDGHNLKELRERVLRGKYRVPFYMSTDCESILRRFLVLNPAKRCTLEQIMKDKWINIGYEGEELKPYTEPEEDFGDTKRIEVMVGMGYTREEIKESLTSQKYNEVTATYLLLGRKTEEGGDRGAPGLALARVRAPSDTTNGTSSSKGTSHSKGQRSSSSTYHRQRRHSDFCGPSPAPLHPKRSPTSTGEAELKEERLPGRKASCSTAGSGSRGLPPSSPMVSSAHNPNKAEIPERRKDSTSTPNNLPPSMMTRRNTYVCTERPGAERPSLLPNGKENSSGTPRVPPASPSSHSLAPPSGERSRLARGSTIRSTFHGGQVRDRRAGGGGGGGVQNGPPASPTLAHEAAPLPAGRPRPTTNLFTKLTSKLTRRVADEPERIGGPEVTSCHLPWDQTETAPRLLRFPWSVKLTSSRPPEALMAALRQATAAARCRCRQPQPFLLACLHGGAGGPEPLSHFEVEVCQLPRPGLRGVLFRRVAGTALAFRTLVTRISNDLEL

For `Nc1ncc2c(n1)-c1c([nH]c3ccc(-c4ccc(F)cc4)cc13)CCC2`, the remaining activity was 73% (kinase activity, inhibitor, radiometric; 1 µM, added: ATP at Km).
`O=C1NC(=O)/C(=C/c2ccc(-c3ccc(F)cc3O)o2)S1` gave a remaining activity of 63% (enzyme activity; 10 µM).
The remaining binding of `C=CC(=O)N1CCC(COCC(=O)N2CCN(c3nc(-c4cnc(N)nc4C(F)F)nc(N4CCOC[C@@H]4C)n3)CC2)CC1` is reported as 100% (KINOMEscan; 1 µM; relative to: DMSO control).
The inhibition of `CC[C@@H]1[C@H](F)C(=O)N[C@@H]1COc1nccc2cc(C(N)=O)c(OC)cc12` is reported as 13.2% (ATP-site probe binding, ActivX profiling; THP-1 cell lysate; 0.2 mM, Lys2 site).
Under “percent of control”, `C1=C/COCc2cc(ccc2OCCN2CCCC2)Nc2nccc(n2)-c2cccc(c2)COC/1` is recorded as 100% (concentration not given).
`C[C@@H](c1ccc(-n2cnc3c(N)ncnc32)cc1)N1CCc2nn(C)c(Cc3ccccc3)c2C1=O` has a remaining binding of 94% (KINOMEscan; 0.1 µM; relative to: DMSO control).
`C=CC(=O)N1CCC(C(=O)NCC(=O)N2CCN(c3nc(-c4cnc(N)nc4C(F)F)nc(N4CCOCC4)n3)CC2)CC1` gave a remaining binding of 97% (KINOMEscan; 1 µM).
`CNc1ncc2c(/C=C/C(=O)N3CCC(OC)CC3)nn(Cc3cccc(C(F)(F)F)c3)c2n1` gave a remaining activity of 101% (kinase activity, inhibitor; 1 µM; relative to: untreated control).
With `O=C(NC1CCC1)c1ccc2nc(-c3cccc(NS(=O)(=O)NCCN4CCCCC4)c3)cn2c1` the remaining activity was 91% (enzyme activity; 10 µM).

Repeated from above:
With `O=C(NC1CCC1)c1ccc2nc(-c3cccc(NS(=O)(=O)NCCN4CCCCC4)c3)cn2c1` the remaining activity was 91% (enzyme activity; 10 µM).
